Experimental data collected from several papers.
Compare with care: the assays were run in different laboratories. Numbers after ± are the reported error.

CN(C)c1ncnc2c1ncn2[C@@H]1O[C@H](CCl)[C@@H](NC(=O)[C@@H](CSC(c2ccccc2)c2ccccc2)NC(=O)OC(C)(C)C)[C@H]1O  inhibition (protein synthesis, refers to: GFP; human cell-free translation; 25 µM): 0%
CSCCNc1nc(SCCC(F)(F)F)nc2c1ncn2[C@@H]1O[C@H](COP(=O)(O)OP(=O)(O)C(Cl)(Cl)P(=O)(O)O)[C@@H](O)[C@H]1O  inhibition (platelet aggregation, light transmission aggregometry; human patients, platelet-rich plasma; dose not given, 4 to 6 h, together with: TRAP 5 µM): 31.2 ± 32.1%
O=C1Nc2ccccc2C1=Cc1ccccn1  inhibition (platelet aggregation; platelet-rich plasma; 1 µM, together with: ADP 5 µM): 26.5%
NCC(=O)Nc1cncc(-c2nn3c(=O)cc(N4CCNCC4)nc3s2)c1  inhibition (ADP-induced platelet aggregation, light transmission aggregometry; human, stable CAD on aspirin, ex vivo platelets; subcutaneous, 0.04 mg/kg, 240 min post-dose, median value, together with: ADP 20 µM): 0%
CC[C@@H]1[C@H](F)C(=O)N[C@@H]1COc1nccc2cc(C(N)=O)c(OC)cc12  inhibition (ATP-site probe binding, ActivX profiling, refers to: PCTAIRE2, PCTAIRE3; THP-1 cell lysate; 0.2 mM, Lys1 site): 0.425%
Cn1cc(-c2ccc(-c3cncc(Cl)c3N3CCC4(CCNC4=O)CC3)cc2)cn1  log2 fold change (COLO 205; gene expression, microarray, refers to: ACTA2 mRNA; concentration not given, 6 h; baseline: untreated cells): 1.85
COc1cc(C(=O)NS(=O)(=O)c2ccccc2C)ccc1Cc1cn(C)c2ccc(NC(=O)OC3CCCC3)cc12  inhibition (P-selectin exposure, flow cytometry, refers to: P-selectin; human platelet-rich plasma; 30 µM, together with: CRP 5 µg/mL): 17%
CN[C@@H]1COc2c(S(=O)(=O)NC(=O)Nc3c4c(cc5c3CCC5)CCC4)cnn2C1  inhibition (refers to: IL-1β; human participants, whole blood ex vivo; 900 mg single dose, 336 h, together with: LPS/ATP; baseline: baseline): 6%
Cc1cnc(N2CC3(CCOCC3)C2)c(C(=O)Nc2ccc(C(=O)N3CCc4cc(C(=O)Nc5c(C)cccc5F)sc4-c4ccccc43)cc2)c1  inhibition (refers to: IP-10; human RSV infection, plasma; dose not given, AUC, ITT-IS population; baseline: placebo): -30%

A few entries again:
CN[C@@H]1COc2c(S(=O)(=O)NC(=O)Nc3c4c(cc5c3CCC5)CCC4)cnn2C1  inhibition (refers to: IL-1β; human participants, whole blood ex vivo; 900 mg single dose, 336 h, together with: LPS/ATP; baseline: baseline): 6%
